Measured values of several laboratories.
Each line is one published result; not all experiments were run side by side. Numbers after ± are the reported error.
Chain of UniProt Q14160 (whole entry, looked up): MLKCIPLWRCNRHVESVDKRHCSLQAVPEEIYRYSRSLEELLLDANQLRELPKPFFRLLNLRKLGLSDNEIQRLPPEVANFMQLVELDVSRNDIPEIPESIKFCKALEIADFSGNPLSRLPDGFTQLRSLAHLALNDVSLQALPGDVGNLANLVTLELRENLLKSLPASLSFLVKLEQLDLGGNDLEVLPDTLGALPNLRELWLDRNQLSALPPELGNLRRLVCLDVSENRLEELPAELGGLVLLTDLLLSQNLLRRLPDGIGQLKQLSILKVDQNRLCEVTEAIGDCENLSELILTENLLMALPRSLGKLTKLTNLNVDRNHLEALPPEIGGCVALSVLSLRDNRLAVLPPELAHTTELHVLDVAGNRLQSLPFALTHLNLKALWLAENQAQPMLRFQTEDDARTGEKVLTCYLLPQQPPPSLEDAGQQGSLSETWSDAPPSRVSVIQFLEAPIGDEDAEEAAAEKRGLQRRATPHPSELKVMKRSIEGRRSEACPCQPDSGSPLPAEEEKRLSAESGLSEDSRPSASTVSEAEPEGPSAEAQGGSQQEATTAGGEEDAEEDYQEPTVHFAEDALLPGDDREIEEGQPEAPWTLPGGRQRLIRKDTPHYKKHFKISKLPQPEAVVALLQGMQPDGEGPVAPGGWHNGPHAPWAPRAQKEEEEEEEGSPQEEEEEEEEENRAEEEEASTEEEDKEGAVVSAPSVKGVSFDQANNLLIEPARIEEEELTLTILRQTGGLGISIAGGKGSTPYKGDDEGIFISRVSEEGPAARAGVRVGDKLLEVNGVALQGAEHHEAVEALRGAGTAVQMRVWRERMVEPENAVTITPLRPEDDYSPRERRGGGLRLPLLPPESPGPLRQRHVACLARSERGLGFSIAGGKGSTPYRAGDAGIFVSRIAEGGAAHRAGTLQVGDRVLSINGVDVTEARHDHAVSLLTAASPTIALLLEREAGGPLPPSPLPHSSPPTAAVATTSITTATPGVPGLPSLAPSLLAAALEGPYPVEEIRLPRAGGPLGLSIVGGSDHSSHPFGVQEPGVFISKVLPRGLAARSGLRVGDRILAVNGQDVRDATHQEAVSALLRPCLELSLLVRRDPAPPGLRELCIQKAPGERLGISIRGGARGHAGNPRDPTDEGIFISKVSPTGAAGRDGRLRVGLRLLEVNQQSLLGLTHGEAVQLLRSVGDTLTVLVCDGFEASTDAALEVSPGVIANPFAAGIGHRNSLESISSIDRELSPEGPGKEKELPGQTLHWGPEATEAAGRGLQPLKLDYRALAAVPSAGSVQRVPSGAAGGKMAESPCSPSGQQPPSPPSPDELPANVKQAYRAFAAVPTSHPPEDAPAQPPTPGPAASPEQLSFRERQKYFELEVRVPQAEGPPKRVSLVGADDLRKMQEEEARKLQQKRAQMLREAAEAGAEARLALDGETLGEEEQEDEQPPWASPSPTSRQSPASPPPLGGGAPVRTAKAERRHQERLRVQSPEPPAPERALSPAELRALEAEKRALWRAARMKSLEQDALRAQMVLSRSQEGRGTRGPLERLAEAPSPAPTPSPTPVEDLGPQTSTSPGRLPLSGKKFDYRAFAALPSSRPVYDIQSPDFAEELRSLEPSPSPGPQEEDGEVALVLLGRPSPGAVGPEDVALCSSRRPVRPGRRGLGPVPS

Compound	target or system	test	test system	setting	scale	measurement	value
CCNCc1nc2c(N)nc3ccccc3c2n1CC(C)(C)O	HFF-1			1 µg/mL, 48 h		viability	85.3%
CC[C@H](C)[C@H](NC(=O)[C@H](C)NC(=O)[C@H](CCCNC(=N)N)NC(=O)[C@H](CCCNC(=N)N)NC(=O)[C@@H](NC(=O)[C@H](CO)NC(=O)[C@H](CC(N)=O)NC(=O)[C@@H](NC(=O)[C@H](Cc1ccccc1)NC(=O)[C@H](CO)NC(=O)[C@H](CCCCN)NC(=O)[C@@H](NC(=O)[C@H](Cc1ccccc1)NC(=O)[C@H](CCCCN)NC(=O)[C@@H](N)C(C)C)C(C)C)[C@@H](C)CC)[C@@H](C)CC)C(=O)N[C@@H](CC(N)=O)C(=O)N[C@@H](CCCCN)C(=O)N[C@@H](Cc1ccc(O)cc1)C(=O)N1CCC[C@H]1C(=O)N1CCC[C@H]1C(=O)N[C@H](C(=O)N[C@@H](CC(N)=O)C(=O)N[C@@H](CC(C)C)C(=O)N[C@@H](CCCCN)C(=O)N[C@H](C(=O)N[C@@H](CCCCN)C(=O)N[C@@H](CS)C(=O)N[C@@H](CC(N)=O)C(=O)N[C@@H](CCCNC(=N)N)C(=O)N[C@@H](CC(C)C)C(=O)N[C@@H](CC(N)=O)C(=O)N[C@@H](CO)C(=O)N[C@H](C(=O)N[C@@H](CC(=O)O)C(=O)N1CCC[C@H]1C(=O)N[C@@H](CCCCN)C(=O)N[C@@H](CCC(N)=O)C(=O)N1CCC[C@H]1C(=O)N1CCC[C@H]1C(=O)N[C@@H](CCCNC(=N)N)C(=O)N1CCC[C@H]1C(=O)N[C@@H](Cc1ccccc1)C(=O)N[C@@H](CCCNC(=N)N)C(=O)N[C@@H](CO)C(=O)N[C@@H](Cc1ccccc1)C(=O)N[C@H](C(=O)O)C(C)C)[C@@H](C)CC)[C@@H](C)CC)[C@@H](C)CC	human red blood cells	hemolysis				HC50	71.1 µmol/L
CN1CCC(=C2c3ccccc3Sc3ccccc32)CC1	African green monkey cells			5 days		CC50	25.7 µM
O=S(=O)(c1ccc(O)cc1)c1ccc(O)cc1	HepG2 spheroids	propidium iodide staining		concentration not given, 24 h		necrotic cells	decreased
CC(=O)N[C@@H](CCCCN)C(=O)N[C@@H](CCCCN)C(=O)N[C@@H](CC(C)C)C(=O)N[C@@H](CC(C)C)C(=O)N[C@@H](CCCCN)C(=O)N[C@@H](CC(C)C)C(=O)N[C@@H](CC(C)C)C(=O)N[C@@H](CCCCN)C(=O)N[C@@H](CCCCN)C(=O)N1CCC[C@H]1C(=O)N[C@@H](CC(C)C)C(=O)N[C@@H](CCCCN)C(=O)N[C@@H](CC(C)C)C(=O)N[C@@H](C)C(=O)N[C@@H](CCCCN)C(N)=O	human red blood cells	haemolysis		6 h, 37 °C, 5% haematocrit in PBS		MHC10	> 160 µM
O=c1ccc2ccccc2o1	HepaRG 3D spheroids	cellular ATP		168 h, high-content imaging		point of departure	131 µM
CCc1cccc(C)c1N(C(=O)CCl)C(C)COC (stereo not shown)	MCF7 AREc32			24 h, nominal concentration	reference: baseline IC10 over IC10	toxic ratio	0.78
C=C(C)[C@H]1Cc2c(ccc3c2O[C@@H]2COc4cc(OC)c(OC)cc4[C@@H]2C3=O)O1	THLE-2 transduced with Ad-CYP1A2	metabolism-induced cytotoxicity		48 h, 3D Matrigel spots		IC50	0.3 ± 0.1 µM
CC(C)C[C@H](NC(=O)CN)C(=O)N[C@@H](CCCCN)C(=O)N[C@@H](CCCCN)C(=O)N[C@@H](CC(C)C)C(=O)N[C@@H](CC(C)C)C(=O)N[C@@H](CC(C)C)C(=O)N[C@@H](CC(C)C)C(=O)N[C@@H](CC(C)C)C(=O)N[C@@H](CCCCN)C(=O)N[C@@H](CCCCN)C(=O)N[C@@H](CC(C)C)C(=O)NCC(=O)O	HEK-293T cells	CCK-8		4 h, 37 °C, 10% cell death		lowest cytotoxic concentration	64 µg/mL
COc1cc(C(=O)OCCN2CCN(CCCN3c4ccccc4Sc4ccc(Cl)cc43)CC2)cc(OC)c1OC	African green monkey cells			5 days		CC50	> 100 µM
Nc1nc2c(ncn2[C@@H]2O[C@@H]3COP(=O)(O)O[C@H]4[C@@H](O)[C@H](n5cnc6c(N)ncnc65)O[C@@H]4COP(=O)(O)O[C@@H]2[C@@H]3O)c(=O)[nH]1	HFF-1			10 µg/mL		viability	100%
CC(=O)N[C@@H](CCCCN)C(=O)N[C@@H](CCCCN)C(=O)N[C@@H](C)C(=O)N[C@@H](CC(C)C)C(=O)N[C@@H](CCCCN)C(=O)N[C@@H](CC(C)C)C(=O)N[C@@H](C)C(=O)N[C@@H](CCCCN)C(=O)N[C@@H](CCCCN)C(=O)N1CCC[C@H]1C(=O)N[C@@H](CC(C)C)C(=O)N[C@@H](CCCCN)C(=O)N[C@@H](CC(C)C)C(=O)N[C@@H](CC(C)C)C(=O)N[C@@H](CCCCN)C(N)=O	human red blood cells	haemolysis		6 h, 37 °C, 5% haematocrit in PBS		MHC10	> 160 µM
NCC[C@H](Oc1ccc(C(F)(F)F)cc1)c1ccccc1	African green monkey cells			5 days		CC50	10.6 µM
Cc1nc(-c2ccc(NCCCCCCN3C[C@H](O)[C@@H](O)[C@H](O)[C@H]3CO)c([N+](=O)[O-])c2)no1	A549 expressing ACE2	WST-1		25 µM, 3 days		viability	100%
CCC(C)(O)c1ccc(OCCc2cccc(F)c2)c(C(N)=O)c1 (stereo not shown)	HepG2			3 (unit not given)	reference: CC50 glucose over CC50 galactose	selectivity ratio	1
Cc1cc(C(C)(C)c2ccc(O)c(C)c2)ccc1O	HepG2 spheroids, dissociated	annexin V-FITC/PI flow cytometry		10 µM, 24 h		early apoptotic cells	16.9 ± 9.49%
Nc1nc2c(ncn2[C@@H]2O[C@@H]3COP(=O)(O)O[C@H]4[C@@H](O)[C@H](n5cnc6c(N)ncnc65)O[C@@H]4COP(=O)(O)O[C@H]3[C@H]2O)c(=O)[nH]1	HFF-1			1 µg/mL		viability	90.3%
Oc1ccc(C2(c3ccc(O)cc3)c3ccccc3-c3ccccc32)cc1	HepG2 spheroids, dissociated	annexin V-FITC/PI flow cytometry		0.10 µM, 96 h		viable cells	40.3 ± 13.3%
Cc1ccc(C(=O)Oc2ccc(C(O)CNC(C)(C)C)cc2OC(=O)c2ccc(C)cc2)cc1 (stereo not shown)	African green monkey cells			5 days		CC50	5.69 µM
CC(C)C[C@H](NC(=O)[C@H](CCCNC(=N)N)NC(=O)[C@H](CCCNC(=N)N)NC(=O)[C@H](CCCNC(=N)N)NC(=O)[C@@H]1CCCN1C(=O)[C@H](Cc1ccccc1)NC(=O)[C@H](Cc1ccc(O)cc1)NC(=O)[C@H](CCCNC(=N)N)NC(=O)[C@H](Cc1ccc(O)cc1)NC(=O)[C@@H](NC(=O)[C@H](CC(C)C)NC(=O)[C@H](Cc1ccc(O)cc1)NC(=O)[C@H](CCCNC(=N)N)NC(=O)[C@H](Cc1c[nH]cn1)NC(=O)[C@@H]1CCCN1C(=O)[C@H](Cc1c[nH]c2ccccc12)NC(=O)[C@H](Cc1ccc(O)cc1)NC(=O)[C@H](Cc1ccccc1)NC(=O)[C@@H]1CCCN1C(=O)[C@H](CCC(N)=O)NC(=O)[C@H](Cc1ccccc1)NC(=O)[C@@H]1CCCN1C(=O)[C@H](Cc1ccccc1)NC(=O)[C@H](CCCNC(=N)N)NC(=O)[C@H](Cc1c[nH]cn1)NC(=O)[C@H](CC(N)=O)NC(=O)[C@H](CS)NC(=O)[C@H](CCCNC(=N)N)NC(=O)[C@H](CO)NC(=O)[C@@H]1CCCN1C(=O)[C@@H](NC(=O)[C@H](Cc1ccccc1)NC(=O)[C@@H]1CCCN1C(=O)[C@@H](N)CCCNC(=N)N)C(C)C)[C@@H](C)O)C(=O)N[C@@H](CCC(N)=O)C(=O)N[C@@H](CCCNC(=N)N)C(=O)O	human red blood cells	hemolysis				HC50	10.1 µmol/L

Compound	target or system	test	test system	setting	scale	measurement	value
CC[C@@H]1C(=O)N(C)c2cnc(Nc3ccc(C(=O)NC4CCN(C)CC4)cc3OC)nc2N1C1CCCC1	African green monkey cells			5 days		CC50	0.603 µM
COc1cc2c(c(OC)c1OC)-c1ccc(OC)c(=O)cc1[C@@H](NC(C)=O)CC2	human peripheral blood lymphocytes	in vitro micronucleus test		0.05 µg/mL, 3 h exposure, -S9, 27 h harvest		cytostasis	35%
CC(=O)c1cc(-c2ccsc2)ccc1OCCc1cccc(F)c1	HepG2			3 (unit not given), glucose medium		CC50	> 100 µM
CC(C)(C)c1ccc(CN2CCN(C(c3ccccc3)c3ccc(Cl)cc3)CC2)cc1 (stereo not shown)	African green monkey cells			5 days		CC50	81.3 µM
CC[C@H](C)[C@H](NC(=O)[C@H](CCCNC(=N)N)NC(=O)[C@@H](NC(=O)[C@H](CCCNC(=N)N)NC(=O)[C@H](CO)NC(=O)[C@H](C)NC(=O)[C@@H](N)CC(N)=O)[C@@H](C)O)C(=O)N[C@H](C(=O)N[C@@H](Cc1ccccc1)C(=O)N[C@H](C(=O)O)C(C)C)[C@@H](C)O	Protein scribble homolog, PDZ3 domain (SCRIB, Homo sapiens, UniProt Q14160)	binding, fluorescence polarization	solution	Scribble PDZ3 domain		Kd	24.1 µM
CSc1ccc2c(c1)N(CCC1CCCCN1C)c1ccccc1S2 (stereo not shown)	African green monkey cells			5 days		CC50	6.38 µM
c1ccc2c(c1)ccc1c3ccccc3ccc21	MCF7 AREc32			highest tested		cytotoxicity	not toxic
CC(c1ccccc1)(c1ccc(O)cc1)c1ccc(O)cc1	HepG2 spheroids, dissociated	annexin V-FITC/PI flow cytometry		10 µM, 24 h		viable cells	74.5 ± 13.5%
C=CCn1c(=O)n([C@@H]2O[C@H](CO)[C@@H](O)[C@H]2O)c2nc(N)[nH]c(=O)c21	HFF-1			10 µM, 48 h		viability	88.4%
O=C(O)/C=C/C(=O)O.Oc1cccc2[nH]cc(CCNC3CCCCC3)c12			C57BL/6J mice	subcutaneous, 1 mg/kg, 30 min		distance travelled	2760 ± 219 cm
Cc1nc2ccccn2c(=O)c1CCN1CCC(=C(c2ccc(F)cc2)c2ccc(F)cc2)CC1	African green monkey cells			5 days		CC50	10.2 µM
CN(CCC(Oc1ccc(C(F)(F)F)cc1)c1ccccc1)N=O (stereo not shown)	TK6 expressing CYP2C19			0.125 µM, 4 h, without S9	reference: vehicle	relative survival	14.4%
N[C@H](CCC(=O)N[C@H](CCC[C@H](N)C(=O)O)C(=O)O)C(=O)O	HFF-1			100 µg/mL		viability	102%
CC(C)CC(=O)OC[C@H]1O[C@@](C#N)(c2ccc3c(N)ncnn23)[C@H](O)[C@@H]1O	monkey hepatocytes			5 µM, 15 min		remaining compound	0.448 ± 0.307%
CC(=O)N[C@@H]1[C@@H](O[C@H](C)C(=O)N[C@@H](C)C(=O)N[C@H](CCC(=O)O)C(N)=O)[C@H](O)[C@@H](CO)O[C@H]1O	HFF-1			10 µg/mL		viability	88%
CC(C)C[C@H](NC(=O)[C@H](CCCCN)NC(=O)[C@H](CC(C)C)NC(=O)[C@H](CC(C)C)NC(=O)CNC(=O)[C@H](CCCCN)NC(=O)[C@H](CC(C)C)NC(=O)[C@H](CCCCN)NC(=O)CNC(=O)[C@H](CC(C)C)NC(=O)[C@H](CC(C)C)NC(=O)[C@H](CCCCN)NC(=O)[C@@H](N)CC(C)C)C(=O)O	HEK-293T cells	CCK-8		4 h, 37 °C, 10% cell death		lowest cytotoxic concentration	> 256 µg/mL
CC(=O)N[C@@H](CCCCN)C(=O)N[C@@H](CCCCN)C(=O)N[C@@H](CC(C)C)C(=O)N[C@@H](CC(C)C)C(=O)N[C@@H](C)C(=O)N[C@@H](CC(C)C)C(=O)N[C@@H](CC(C)C)C(=O)N[C@@H](CCCCN)C(=O)N[C@@H](CCCCN)C(=O)N1CCC[C@H]1C(=O)N[C@@H](CC(C)C)C(=O)N[C@@H](CCCCN)C(=O)N[C@@H](CC(C)C)C(=O)N[C@@H](CC(C)C)C(=O)N[C@@H](CCCCN)C(N)=O	human red blood cells	haemolysis		6 h, 37 °C, 5% haematocrit in PBS		MHC10	> 160 µM
COc1ccc(CCOc2ccc(-c3ccsc3)cc2C(N)=O)cc1F	HepG2			3 (unit not given)	reference: CC50 glucose over CC50 galactose	selectivity ratio	1
CC(C)C[C@H](N)C(=O)N[C@@H](Cc1c[nH]c2ccccc12)C(=O)N[C@@H](Cc1c[nH]c2ccccc12)C(=O)N[C@@H](CCCNC(=N)N)C(=O)N[C@@H](Cc1c[nH]c2ccccc12)C(=O)N[C@@H](Cc1c[nH]c2ccccc12)C(=O)N[C@@H](CCCNC(=N)N)C(=O)N[C@@H](Cc1c[nH]c2ccccc12)C(=O)N[C@@H](CCCNC(=N)N)C(=O)O	HEK-293T cells	CCK-8		4 h, 37 °C, 10% cell death		lowest cytotoxic concentration	256 µg/mL
COc1cc2c(c(OC)c1OC)-c1ccc(OC)c(=O)cc1[C@@H](NC(C)=O)CC2	HepG2 spheroids	flow cytometry, measured: phospho-histone H3		0.1 µM, 24 h	reference: solvent control	mitotic cells	22.9 fold

Some of these lines once more:
Compound	target or system	test	test system	setting	scale	measurement	value
CC(c1ccccc1)(c1ccc(O)cc1)c1ccc(O)cc1	HepG2 spheroids, dissociated	annexin V-FITC/PI flow cytometry		10 µM, 24 h		viable cells	74.5 ± 13.5%
C=CCn1c(=O)n([C@@H]2O[C@H](CO)[C@@H](O)[C@H]2O)c2nc(N)[nH]c(=O)c21	HFF-1			10 µM, 48 h		viability	88.4%
O=C(O)/C=C/C(=O)O.Oc1cccc2[nH]cc(CCNC3CCCCC3)c12			C57BL/6J mice	subcutaneous, 1 mg/kg, 30 min		distance travelled	2760 ± 219 cm
Cc1nc2ccccn2c(=O)c1CCN1CCC(=C(c2ccc(F)cc2)c2ccc(F)cc2)CC1	African green monkey cells			5 days		CC50	10.2 µM
CN(CCC(Oc1ccc(C(F)(F)F)cc1)c1ccccc1)N=O (stereo not shown)	TK6 expressing CYP2C19			0.125 µM, 4 h, without S9	reference: vehicle	relative survival	14.4%
N[C@H](CCC(=O)N[C@H](CCC[C@H](N)C(=O)O)C(=O)O)C(=O)O	HFF-1			100 µg/mL		viability	102%
CC(C)CC(=O)OC[C@H]1O[C@@](C#N)(c2ccc3c(N)ncnn23)[C@H](O)[C@@H]1O	monkey hepatocytes			5 µM, 15 min		remaining compound	0.448 ± 0.307%
